{"data": "Results of several laboratories", "note": "Numbered parts are unrelated; each lists some results of a single study.", "UniProt P18846, sequence (whole entry, looked up)": "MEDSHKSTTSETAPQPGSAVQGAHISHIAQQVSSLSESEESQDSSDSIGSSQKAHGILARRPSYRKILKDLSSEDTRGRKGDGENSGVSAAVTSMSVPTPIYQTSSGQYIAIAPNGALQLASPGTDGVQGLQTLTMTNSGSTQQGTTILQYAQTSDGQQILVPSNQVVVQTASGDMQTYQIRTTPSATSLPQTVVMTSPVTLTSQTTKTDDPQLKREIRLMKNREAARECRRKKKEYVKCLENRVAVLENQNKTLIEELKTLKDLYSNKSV", "UniProt P16220, sequence (whole entry, looked up)": "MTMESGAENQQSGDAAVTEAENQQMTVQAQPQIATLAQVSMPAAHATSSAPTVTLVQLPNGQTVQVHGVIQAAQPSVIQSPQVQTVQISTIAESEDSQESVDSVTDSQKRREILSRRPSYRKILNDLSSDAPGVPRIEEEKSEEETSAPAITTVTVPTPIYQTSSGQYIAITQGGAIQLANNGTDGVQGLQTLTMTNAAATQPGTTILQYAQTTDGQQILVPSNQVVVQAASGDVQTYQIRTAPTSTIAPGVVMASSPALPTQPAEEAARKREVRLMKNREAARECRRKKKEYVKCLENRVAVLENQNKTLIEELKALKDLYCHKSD", "UniProt Q9Y261, sequence (142-269, looked up)": "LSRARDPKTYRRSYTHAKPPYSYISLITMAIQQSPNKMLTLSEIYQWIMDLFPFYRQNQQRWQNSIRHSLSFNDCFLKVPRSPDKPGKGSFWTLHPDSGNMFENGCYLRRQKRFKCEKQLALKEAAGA", "UniProt P10914, sequence (1-114, looked up)": "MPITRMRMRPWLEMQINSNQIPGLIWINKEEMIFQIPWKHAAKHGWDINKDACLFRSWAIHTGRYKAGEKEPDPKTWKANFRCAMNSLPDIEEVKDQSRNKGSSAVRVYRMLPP"}
{"data": "Block 1", "target": "Fragile X messenger ribonucleoprotein 1, C-terminal low-complexity region (Fmr1, Mus musculus, UniProt P35922)", "method": "RNA Bind-n-Seq", "molecule type": "RNA", "matrix": "in vitro", "concentration": "200 nM", "notes": "whole 134-nt RNA, ends assumed", "added": "150 mM LiCl", "reference": "input library", "reading": "higher = stronger binding", "all molecules": "7-deaza-guanosine replaces G", "all sequences stand within": "GGGAGUUCUACAGUCCGACGAUC … UGGAAUUCUCGGGUGUCAAGG"}
{"Oligonucleotide": "UGAGAAACUUGCUCAAAUAUUGGCAGCUAGACAGUUAGAAAUUAAACAGAUUCCAUCUGAUGGCCACUGUAUGUAUAAAGCCAUUGAAGA", "log2 enrichment": -1.59}
{"Oligonucleotide": "AAAAGACAACACGCACCCACACAGACACAGAGGGAAGGGGUUGGGAUGGGGACAGGGUGCACAGCAGGGCGGGGUAGGACCCCAGCCCCU", "log2 enrichment": -0.0287}
{"Oligonucleotide": "UCAAGUCCUGUGCUACACAUCGUAUGUACCGAAUCGGAAAGGAGGAAAAAAAGGAAAGUAUUAUGUUACGCCGUUCGGAUCUGCACUUCC", "log2 enrichment": -0.344}
{"Oligonucleotide": "UCCUGUGCUACACAUCGUAUGUACCGAAUCGGGCCCCCCGGGGCCCCCCGGCCCCCCGGAAAGUAUUAUGUUACGCCGUUCGGAUCUGCA", "log2 enrichment": -0.438}
{"Oligonucleotide": "CCUGUGCUACACAUCGUAUGUACCGAAUCGGGGUUUUUUUGGGGUUUUUGGGGUUUGGGGAAAGUAUUAUGUUACGCCGUUCGGAUCUGC", "log2 enrichment": -0.898}
{"Oligonucleotide": "UGGGAGGUGGAUUUUGUUUAUUUUUUUAGCUCAUUUCCAGGGGUGGGAAUUUUUCUUUAAUAUGUGUCAUGAAUAAAGUUGUUUUUGAAA", "log2 enrichment": -0.655}
{"Oligonucleotide": "UCCUGUGCUACACAUCGUAUGUACCGAAUCAAACCCAAACCCCCCCAAACCCCCCCAAAAAAGUAUUAUGUUACGCCGUUCGGAUCUGCA", "log2 enrichment": 0.953}
{"Oligonucleotide": "CAAGUCCUGUGCUACACAUCGUAUGUACCGAAUCGGUUUUUGGUGGUUUUUUUGGAAAGUAUUAUGUUACGCCGUUCGGAUCUGCACUUC", "log2 enrichment": -1.2}
{"data": "Block 2", "cell line": "HEK-293T", "organism": "VSV pseudotyped with SARS-CoV-2 spike", "concentration": "10 µM", "time": "16 h"}
{"SMILES": "NC(N)=Nc1nc(CSCCC(N)=NS(N)(=O)=O)cs1", "pseudovirus infection [%]": 76.9}
{"SMILES": "OCCOc1ccc(/C(=C(/CCCl)c2ccccc2)c2ccccc2)cc1", "pseudovirus infection [%]": 79.3}
{"SMILES": "CN1[C@@H]2CC[C@H]1C[C@@H](OC(=O)C(CO)c1ccccc1)C2 (some centres unmarked)", "pseudovirus infection [%]": 79.9}
{"SMILES": "Cn1cnc([N+](=O)[O-])c1Sc1ncnc2nc[nH]c12", "pseudovirus infection [%]": 105}
{"data": "Block 3", "target": "RNA binding protein fox-1 homolog 2, RRM domain, GST-SBP tag (RBFOX2, Homo sapiens, UniProt O43251-10, residues 100-194)", "method": "RNA Bind-n-Seq", "molecule type": "RNA", "matrix": "in vitro", "concentration": "365 nM", "notes": "natural RNA segment, single round, ends assumed", "reference": "no-protein control", "reading": "higher = stronger binding", "all sequences stand within": "GGGAGUUCUACAGUCCGACGAUC … UGGAAUUCUCGGGUGCCAA"}
{"Oligonucleotide": "CAGACUCGGGAACUGCCUGAAUGUGGUUUGGGACACGAGACCUCAUCAUAUUGAUGAGCGAACAAACAAGAACAUUUCCUCCCUCCCCUCCUUUGAAUUGAAAUGGCACA", "RBNS enrichment (R)": 1.82}
{"Oligonucleotide": "GCUGAAAUUUGAAGACCAGAUAAUGAAACUGAAAAGCAAACAAUUUUACUGAAUCUGUCUACCCUUCAUUCAUGAGAACUCCAGAAUGAGUGUUGACCACUGAAGCAUCU", "RBNS enrichment (R)": 2.09}
{"Oligonucleotide": "ACUCUCAGAAAAUGACACUCUUCCCACAUGUGGGGUUUUCUCAGUGUUCUAAGUUUUUAAGAAGUUUUAUCUUGUGUAUUUGCAUCAAACAUUUCUUUAUGUGCUAAAUG", "RBNS enrichment (R)": 0.459}
{"Oligonucleotide": "UAACAUAUUUAUGAAGAUGAGGCCUGGUGACCCAGCAGGUUCAUUGGAUACAUAAGAAAUGAGAAUUCCUGGUUCAUGGGCCAACCUAGGACUCUGGAGUAUGCAGACUU", "RBNS enrichment (R)": 0.445}
{"Oligonucleotide": "AAGGAACCAUGUAAUGGUAGCAGUACCUCCCUAAAGCAUUUUGAGGUAGGGGAGGUAUCCAUUCAUAAAAUGAAUGUGGGUGAAGCCGCCCUAAGGAUUUUCCUUUAAUU", "RBNS enrichment (R)": 2.63}
{"Oligonucleotide": "AAAAUACAGUGCAAUUAGUGAUGGCUAAAUACACAGUGCUUGGGAUUCAGUCUGUGUAACAUUUUCUUCUGUGUUUUUUACCAGCCAGCUCAAAAGUUAAGAGCAAAUUA", "RBNS enrichment (R)": 0.582}
{"Oligonucleotide": "UUUGUAGAUAUGGAGAUGAAGAAGACAAAUCUUUAUUAUAAUAUUGAUCAGUUUUAUGCCGCAUUGUUCGUGGCAGUAGACCACAUCUGUUCGUCUGCACAGCUGUGAGG", "RBNS enrichment (R)": 0.526}
{"Oligonucleotide": "GGUCACUCUUUCCCUCUUACUGUAGUUUCCUAGAUUUAUCUGAGGAAAAGUGAGAUGUCUUCACGCUAAGGCUCCAGUGUUCUGUCAGAGACCUGAAUGCUCUAUUUGCC", "RBNS enrichment (R)": 0.541}
{"data": "Block 4", "target": "Replicase polyprotein 1ab, polymerase (rep, Severe acute respiratory syndrome coronavirus 2, UniProt P0DTD1)", "observed": "enzyme activity", "action": "inhibitor", "concentration": "20 µM"}
{"SMILES": "CC(OC(=O)NCC1(CC(=O)O)CCCCC1)OC(=O)C(C)C (centres unmarked)", "inhibition": "-4.15%"}
{"SMILES": "COc1ccc(-c2nc(C(=O)N3CCN(C)CC3)sc2-c2ccc(OC)cc2)cc1", "inhibition": "4.74%"}
{"SMILES": "CN1C2C=C(c3sccc3Br)CC1CC2 (centres unmarked)", "inhibition": "11.8%"}
{"SMILES": "CN(C)Cc1ccc(-c2nc3cccc4c3n2CCNC4=O)cc1", "inhibition": "-1.96%"}
{"SMILES": "N#Cc1cccc(-c2c[nH]c3ncnc(N4CCOCC4)c23)c1", "inhibition": "-2.72%"}
{"SMILES": "c1ccc2c(c1)OC[C@H](CNCCCOc1ccc3c(c1)OCO3)O2", "inhibition": "-17.1%"}
{"SMILES": "Clc1ccccc1CN1CCc2sccc2C1", "inhibition": "12.7%"}
{"SMILES": "CNC(=O)c1ccc2c(c1)S(=O)(=O)c1ccccc1C2=O", "inhibition": "0.47%"}
{"SMILES": "OC[C@H]1O[C@@H](n2cnc3c2N=CNC[C@H]3O)C[C@@H]1O", "inhibition": "-3.77%"}
{"SMILES": "CN1c2cc3c(cc2N=C(c2ccc(C(=O)O)cc2)c2ccccc21)C(C)(C)CCC3(C)C", "inhibition": "-2.13%"}
{"SMILES": "C/C(=C\\C(N)C(=O)O)CP(=O)(O)O (centres unmarked)", "inhibition": "3.54%"}
{"SMILES": "COc1cc(S(C)(=O)=O)ccc1Nc1nc2ccc(-c3ccc(NC(=O)[C@H](C)c4ccc(F)cc4)cc3)cn2n1", "inhibition": "8.05%"}
{"SMILES": "CC(/C=C/C(=O)NO)=C\\[C@@H](C)C(=O)c1ccc(N(C)C)cc1", "inhibition": "-4.54%"}
{"SMILES": "CCCCCCCCCCC/C(=N\\O)c1cc(C)ccc1O", "inhibition": "-2.18%"}
{"SMILES": "CC(C(=O)O)c1ccc(C(=O)c2ccccc2)s1 (centres unmarked)", "inhibition": "3.85%"}
{"SMILES": "COc1ccccc1N1CCN(CCN2C(=O)c3ccccc3C(C)(C)C2=O)CC1", "inhibition": "-1.2%"}
{"SMILES": "Cc1cccc(N(C)C(=S)Oc2ccc3ccccc3c2)c1", "inhibition": "24.4%"}
{"SMILES": "CC(=O)OCC(=O)[C@@]1(O)CC[C@H]2[C@@H]3CCC4=CC(=O)C=C[C@]4(C)[C@@]3(Cl)[C@@H](Cl)C[C@@]21C", "inhibition": "-6.12%"}
{"SMILES": "CC(C)C(=O)Nc1ccc([N+](=O)[O-])c(C(F)(F)F)c1", "inhibition": "-0.85%"}
{"SMILES": "O=C(OC(C(F)(F)F)C(F)(F)F)N1CCC(C(O)(c2ccc3c(c2)OCO3)c2ccc3c(c2)OCO3)CC1", "inhibition": "-0.69%"}
{"SMILES": "CC#C[C@]1(O)CC[C@H]2[C@@H]3CCC4=CC(=O)CCC4=C3[C@@H](c3ccc(N(C)C)cc3)C[C@@]21C", "inhibition": "3.93%"}
{"SMILES": "CNCc1ccc(C)c(NC(=O)c2ccc(Nc3nc(-c4ccccc4)c4ccccc4n3)cc2)c1", "inhibition": "13.8%"}
{"SMILES": "Nc1ccccc1S(N)(=O)=O", "inhibition": "-0.87%"}
{"SMILES": "Clc1cccc(Cl)c1CSc1nnc(-c2cnccn2)s1", "inhibition": "0.93%"}
{"SMILES": "NS(=O)(=O)c1cc(C(=O)O)cc(N2CCCC2)c1Oc1ccccc1", "inhibition": "1.64%"}
{"data": "Further values, each from its own experiment"}
{"Substance": "GAGGCCCGAAAGCGACACGCCTCCTGGCGTGTCGCTTTCGGGCCTCACAC (5mC at 16)", "target": "Interferon regulatory factor 1, DNA-binding domain (IRF1, Homo sapiens, UniProt P10914, residues 1-114)", "test": "protein-binding microarray", "system": "hairpin DNA, in vitro", "conditions": "not given, whole hairpin DNA, median over replicate spots", "scale": "reference: not given, higher = stronger binding", "endpoint": "median fluorescence", "result": "520 a.u."}
{"Substance": "Oc1cccc(-c2c3nc(c(-c4cccc(O)c4)c4ccc([nH]4)c(-c4cccc(O)c4)c4nc(c(-c5cccc(O)c5)c5ccc2[nH]5)CC4)C=C3)c1", "target": "Replicase polyprotein 1ab, main protease (rep, Severe acute respiratory syndrome coronavirus 2, UniProt P0DTD1)", "test": "enzyme activity, inhibitor", "conditions": "20 µM, hit confirmation", "endpoint": "inhibition", "result": "77.8%"}
{"Substance": "GAGGCCATGCGAACAACGCCTCCTGGCGTTGTTCGCATGGCCTCACACTC", "target": "Hepatocyte nuclear factor 3-beta, forkhead domain (FOXA2, Homo sapiens, UniProt Q9Y261, residues 142-269)", "test": "protein-binding microarray", "system": "hairpin DNA, in vitro", "conditions": "not given, whole hairpin DNA, median over replicate spots", "scale": "reference: not given, higher = stronger binding", "endpoint": "median fluorescence", "result": "3380 a.u."}
{"Substance": "GAGGCCGACGACGTCGTGCCTCCTGGCACGACGTCGTCGGCCTCACACTC (5mC at 9 15 35)", "target": "Cyclic AMP-dependent transcription factor ATF-1, full length (ATF1, Homo sapiens, UniProt P18846, residues 1-271)", "test": "protein-binding microarray", "system": "hairpin DNA, in vitro", "conditions": "not given, whole hairpin DNA, median over replicate spots", "scale": "reference: not given, higher = stronger binding", "endpoint": "median fluorescence", "result": "3660 a.u."}
{"Substance": "GAGGCCGACGACGTCGTGCCTCCTGGCACGACGTCGTCGGCCTCACACTC (5mC at 9 15 29)", "target": "Cyclic AMP-responsive element-binding protein 1, full length (CREB1, Homo sapiens, UniProt P16220, residues 1-327)", "test": "protein-binding microarray", "system": "hairpin DNA, in vitro", "conditions": "not given, whole hairpin DNA, median over replicate spots", "scale": "reference: not given, higher = stronger binding", "endpoint": "median fluorescence", "result": "7080 a.u."}
{"note": "A few entries again (block 4):"}
{"SMILES": "CN1c2cc3c(cc2N=C(c2ccc(C(=O)O)cc2)c2ccccc21)C(C)(C)CCC3(C)C", "inhibition": "-2.13%"}
{"SMILES": "C/C(=C\\C(N)C(=O)O)CP(=O)(O)O (centres unmarked)", "inhibition": "3.54%"}
{"SMILES": "COc1cc(S(C)(=O)=O)ccc1Nc1nc2ccc(-c3ccc(NC(=O)[C@H](C)c4ccc(F)cc4)cc3)cn2n1", "inhibition": "8.05%"}
{"SMILES": "CC(/C=C/C(=O)NO)=C\\[C@@H](C)C(=O)c1ccc(N(C)C)cc1", "inhibition": "-4.54%"}
{"SMILES": "CCCCCCCCCCC/C(=N\\O)c1cc(C)ccc1O", "inhibition": "-2.18%"}
